Measured values gathered from unrelated publications.
A part holds a random share of what one study measured.

Study 1 — method: RNA Bind-n-Seq; form: RNA; medium: in vitro; tested at: 365 nM; reference: no-protein control; direction: higher = stronger binding; quantity: RBNS enrichment (R)
Target: RNA binding protein fox-1 homolog 2, RRM domain, GST-SBP tag (RBFOX2, Homo sapiens, UniProt O43251-10, residues 100-194)
Notes: natural RNA segment, single round, ends assumed
Construct (chain): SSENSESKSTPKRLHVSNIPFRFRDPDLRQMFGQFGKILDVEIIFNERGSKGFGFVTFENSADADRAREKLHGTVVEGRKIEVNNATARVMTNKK
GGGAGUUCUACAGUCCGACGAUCUGAAUUUAUGCCUUUUGUAAACAUGAUAGGUAUAAAUGUCUUAUAAACAUUCUGGAGUAUGUAUAGCUUUAAUGAAUGAAAUUUAAUGGACCUGAUUAAAAUGAAGGGAUUGGAAUUCUCGGGUGCCAA: 0.551
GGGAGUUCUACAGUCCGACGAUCUUGAAGCUUGCUCUCCCUAGAUGGGUGGUCUGCUCUCGGUCCUUCUCUGCUCUCUAUAAAAUGGUGCUGUGCGGGAGGGAGGGGGGAAGUUUUUCAAUAUAUGAACUUUUUGGAAUUCUCGGGUGCCAA: 0.63
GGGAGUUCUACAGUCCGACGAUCUUUCCCUUCCUUUGGACAGUGUUACAAUGAACACUUAGCAUUCUGUUUUUGGUUGAUAGUUGAGCAAACUGACAUUACAGAAAGUGCCUUAGACACUACAGUACUAAGACUGGAAUUCUCGGGUGCCAA: 0.512
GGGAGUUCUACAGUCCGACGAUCCCCUGCCACUGCCAGCUCUUAGUACAGUCCCAACUACCGUAGACCAGGUGACAUUUGUUGACACCAUUCUCAGAGGUGUUGAAGAUUUAUCAUCUUGAAUCCUCCACAAAUGGAAUUCUCGGGUGCCAA: 0.581
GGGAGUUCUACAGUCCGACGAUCCACUGCUCAUGUGUGGAUGCCCCUGCAACAGGCUUCCCUGUCUGUAGAGCCAGGGGUGCAAGUGCCAUCCACACUUGCAGUGAAUGGCUUUUCCUUUUAGGUUUAAGUCCUGGAAUUCUCGGGUGCCAA: 0.583
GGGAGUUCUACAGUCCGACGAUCUGGAUAAGUUACAUCGGGCUUCAUCAUCUAUACCUCCAUUUUUUCCUCCAGUUUUUAAUUUACUUUCGGAGUUUGUGUUGAUUUUGAUGGCACGUGACUUUUAAGCAGUAUGGAAUUCUCGGGUGCCAA: 1.26
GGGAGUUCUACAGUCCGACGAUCGGGAAGAAAGCAAGGGACAAAGAACUGCAAGGGGCCAAAGCCAAAGAUCUAUCCGAGUGCUUCCUUCAACUGACCAUAUGCUUCUUCCUCGUGUCUGCCUGCGGGCUCCUUGGAAUUCUCGGGUGCCAA: 0.461
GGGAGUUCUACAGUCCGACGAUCCAGGUCAGAGAUGUCCCCUGCCAUGCAGAGCAGGAAGCCUCAGCUGGGCCUGGAGUGUCCCUGCUCCAGCCCUGCCAGGGACAGGUUUCUCCCUGGAUACUCUUGGCCCAUGGAAUUCUCGGGUGCCAA: 0.218
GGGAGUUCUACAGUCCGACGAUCAGGUUGCCAAUCUGCUACAAUUAUUUUUCCCACCAAUCUGCUCAAAAUGAUUGUAUAUAGUAUUCUUAAAACCAUGUGUCUUGGUGCAGAAAUAUUGACAAAUGCUGGCCUGGAAUUCUCGGGUGCCAA: 0.496
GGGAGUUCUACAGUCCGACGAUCUUUACCUCAGAAGCAGUGACAGCCGCAGAAACCACAGAGGCGCUCCGCGCUGAAGAACUUACCGAAGCAUCAGGGGCAGAAGAGACCACAGACAUGGUGUCUGCAGUUUCUGGAAUUCUCGGGUGCCAA: 0.229
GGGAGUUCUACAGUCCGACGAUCGCAAGGCCUCCAGGGAUGGCCCCUAGCCACAGGCCCUGGCUGAGGUCUCUGGGUCGGUCAGUGACAUGUAGGUAGGAAGCACUGAAAAUAGUGUUCCCAGAGCACUUUGCUGGAAUUCUCGGGUGCCAA: 0.319
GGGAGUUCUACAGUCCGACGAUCGACUCAGGUGGGCCCUCUGAACUUGCCUUAAACACUCACCUUCUAGUCUUGGCCAGCCAACUCUGGGAAUACAGGGGUGAAAGGGGGGAACCAGUGAAAAUGAAAGGAAGUGGAAUUCUCGGGUGCCAA: 0.386

Study 2 — method: universal PBM; form: double-stranded DNA, one strand shown; medium: in vitro; tested at: not given; direction: higher = stronger binding; quantity: E-score
Target: Sal-like protein 4, full length isoform B (SALL4, Homo sapiens, UniProt Q9UJQ4-2, residues 1-616)
Notes: 8-mer, flanks averaged, mean of replicates
AAGCCATA: 0.127
ATCCTCAG: -0.053
CCCTGTAG: -0.138
AAGGGGCA: -0.149
ACTCTGGC: -0.268
ACAGACCG: -0.217
ATCTACGG: 0.0407
CCCGAGTC: -0.187
ACGCGCGC: -0.194
GCTAGTAA: 0.105
ATTCTTCC: 0.0396
GATAAGCA: 0.132
ACATCGTA: 0.0316
GTTAGGCA: 0.0519
TCTCGTAA: 0.168
CGCGGATC: -0.255
ACACGCAC: -0.229
TGAGAGCA: -0.055
AAGAAATC: 0.0753
AAGGCAAA: 0.124
AACAGCGG: -0.112
ATTCGTGA: 0.184
ATGTGACC: 0.0222
ATACGATC: 0.0326
CCCGCCCC: -0.201

Study 3 — method: RNAcompete; form: RNA; medium: in vitro; tested at: 20 nM; notes: 7-mer, probes averaged, single round; reference: mean of 7-mers; direction: higher = stronger binding; quantity: 7-mer Z-score
Target: PABPC1L2, full length, GST fusion (mouse, UniProt A0ABA7IW68)
Target sequence (chain): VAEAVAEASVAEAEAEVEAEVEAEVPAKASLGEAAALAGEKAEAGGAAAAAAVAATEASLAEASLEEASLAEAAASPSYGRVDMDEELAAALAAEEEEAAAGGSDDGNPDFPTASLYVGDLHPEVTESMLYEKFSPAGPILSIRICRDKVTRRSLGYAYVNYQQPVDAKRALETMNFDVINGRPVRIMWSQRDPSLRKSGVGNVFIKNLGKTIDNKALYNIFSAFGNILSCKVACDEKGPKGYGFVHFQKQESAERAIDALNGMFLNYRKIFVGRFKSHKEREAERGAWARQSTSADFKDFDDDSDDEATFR
AUUAAGG: 0.189
UCAGGGG: 0.238
ACUUGAC: -0.204
UAAAAUC: 1.96
UCUUUAU: -0.0446
UUCCCCC: -0.505
CAAUGUA: -0.128
CAGAGGC: 0.144
AGUAUGG: 0.0388
UGUAAAU: 0.445
CAACGGC: -0.211
ACCGAUA: 0.102
AGGUUGA: 0.0315
AGUUCUG: -0.331
GUCCCUU: -0.394
UACCGAA: -0.00652
UUUUACC: -0.258
GAGGGAA: 0.495
UUCAUCG: -0.458
ACUGCCG: -0.0844
UUCCUAA: -0.24
CCCACAG: -0.402
UACUCGC: -0.358
GAUAUCU: -0.199
GAUUACG: -0.126

Study 4 — method: RNA Bind-n-Seq; form: RNA; medium: in vitro; tested at: 20 nM; notes: 6-mer, flanks averaged, single round; together with: 150 mM KCl; reference: input library; direction: higher = stronger binding; quantity: 6-mer enrichment (R)
Target: TAR DNA-binding protein 43, full length, His tag (TARDBP, Homo sapiens, UniProt Q13148, residues 1-414)
GCAAUG: 0.982
GAUUCG: 0.783
CAAUCU: 0.568
AGUAAC: 0.635
UAAUUU: 0.664
GAAUAU: 0.694
GAGUAC: 0.858
GAGCGC: 1.39
AAUCUG: 0.629
CUAUCA: 0.545
UAGGAU: 0.743
UUUAGC: 0.625
GAGGGA: 5.06
CUGCAU: 0.647
UUCAGA: 0.59
GUUACG: 0.871
GGCUUC: 0.844
GAUUUG: 0.814
AGAUAC: 0.628
CGCCCU: 0.64
AGUGUU: 0.836
GACUCA: 0.669
AUCAAU: 0.598
GUUCCG: 0.783
CAUACA: 0.599
